Results from different studies.
Compare with care: the assays were run in different laboratories.
Organism: Micrococcus luteus

| SMILES | assay | test system | setting | quantity | result |
| --- | --- | --- | --- | --- | --- |
| CC(C)C[C@H](NC(=O)[C@H](Cc1ccccc1)NC(=O)[C@H](CCC(N)=O)NC(=O)[C@H](Cc1ccc(O)cc1)NC(=O)[C@H](CCCCN)NC(=O)[C@@H]1CCCN1C(=O)[C@H](CCCNC(=N)N)NC(=O)[C@H](CCC(N)=O)NC(=O)[C@H](Cc1c[nH]c2ccccc12)NC(=O)[C@H](CS)NC(=O)[C@H](Cc1c[nH]c2ccccc12)NC(=O)[C@H](Cc1ccccc1)NC(=O)[C@H](CCCNC(=N)N)NC(=O)[C@H](CCCCN)NC(=O)[C@H](CCCCN)NC(=O)[C@H](CCCCN)NC(=O)[C@@H](NC(=O)[C@@H](NC(=O)[C@H](CC(C)C)NC(=O)[C@@H](N)CO)C(C)C)[C@@H](C)O)C(=O)O | – | NCTC 2665 | – | MIC | 6.25 µg/mL |
| CC(C)C[C@H](NC(=O)[C@H](CCCCN)NC(=O)[C@H](C)NC(=O)[C@H](CC(C)C)NC(=O)[C@H](CCCCN)NC(=O)[C@H](CCC(N)=O)NC(=O)[C@H](CCCCN)NC(=O)[C@H](CC(C)C)NC(=O)[C@H](CCCCN)NC(=O)[C@H](CCC(N)=O)NC(=O)[C@H](CC(C)C)NC(=O)[C@H](CCCCN)NC(=O)[C@H](C)NC(=O)[C@H](CCCCN)NC(=O)[C@H](CC(C)C)NC(=O)[C@H](CCCCN)NC(=O)[C@H](C)NC(=O)[C@H](CC(C)C)NC(=O)[C@H](CCCCN)NC(=O)[C@H](CCC(N)=O)NC(=O)[C@@H](N)CCCCN)C(N)=O | broth microdilution | ATCC 7468 | 24 h | MIC | 7.1 µM |
| CC[C@H](C)[C@H](NC(=O)[C@H](Cc1c[nH]c2ccccc12)NC(=O)[C@H](CCCCN)NC(=O)[C@H](CC(C)C)NC(=O)[C@@H](NC(=O)[C@@H](NC(=O)CNC(=O)[C@H](CCCCN)NC(=O)[C@H](Cc1c[nH]cn1)NC(=O)[C@H](CCCCN)NC(=O)[C@H](Cc1c[nH]c2ccccc12)NC(=O)[C@H](C)NC(=O)[C@H](CC(C)C)NC(=O)[C@H](CO)NC(=O)[C@@H](NC(=O)[C@H](Cc1ccc(O)cc1)NC(=O)[C@H](CCCCN)NC(=O)[C@H](CCC(N)=O)NC(=O)CNC(=O)[C@H](CCCCN)NC(=O)[C@@H](NC(=O)[C@H](C)NC(=O)[C@H](CC(C)C)NC(=O)[C@H](Cc1ccccc1)NC(=O)[C@H](CCC(N)=O)NC(=O)[C@@H](NC(=O)[C@H](CC(C)C)NC(=O)[C@H](CCCCN)NC(=O)[C@H](CCSC)NC(=O)[C@H](Cc1ccccc1)NC(=O)[C@H](C)NC(=O)[C@H](C)NC(=O)[C@@H](N)CCSC)[C@@H](C)CC)[C@@H](C)O)C(C)C)[C@@H](C)O)[C@@H](C)CC)C(=O)N[C@@H](CC(N)=O)C(N)=O | broth microdilution | ATCC 49732 | 24 h, 37 °C | MIC | 6 µg/mL |
| CCc1ccn2c(C(=O)NC(C)c3ccccc3)c(C)nc2c1 (centres unmarked) | microbial growth | ATCC10240 | 2 mM | inhibition zone | 15 mm |
| CC(C)C[C@H](NC(=O)[C@H](CCC(=O)O)NC(=O)[C@H](C)NC(=O)[C@H](CC(C)C)NC(=O)[C@H](CCC(=O)O)NC(=O)[C@H](C)NC(=O)[C@H](CCC(N)=O)NC(=O)[C@H](CC(C)C)NC(=O)[C@H](CCC(=O)O)NC(=O)[C@H](Cc1ccc(O)cc1)NC(=O)[C@H](CC(C)C)NC(=O)[C@H](CCC(N)=O)NC(=O)[C@H](C)NC(=O)[C@H](CCC(=O)O)NC(=O)[C@H](CC(C)C)NC(=O)[C@H](CCC(N)=O)NC(=O)[C@H](C)NC(=O)[C@H](CC(C)C)NC(=O)[C@H](CCC(=O)O)NC(=O)[C@H](C)NC(=O)[C@@H](N)CCC(N)=O)C(N)=O | broth microdilution | ATCC 7468 | 24 h | MIC | > 250 µM |
| Cc1ccc2[nH]c3c(c2c1)CCCC3NCCc1ccc(O)cc1 (centres unmarked) | broth microdilution | DSM 1790 | – | MIC | 8 µg/mL |
| Cc1ccc2nc(C)c(C(=O)NCc3ccccc3)n2c1 | microbial growth | ATCC10240 | 2 mM | inhibition zone | 0 mm |
| CC[C@H](C)[C@@H]1NC(=O)[C@@H]2CCCN2C(=O)[C@H](C)NC(=O)[C@H](CC(C)C)NC(=O)[C@@H]2CCCN2C(=O)[C@H](C)NC(=O)[C@@H]2CSSC[C@H](NC(=O)[C@H](C)NC(=O)[C@H](C)NC(=O)[C@H](Cc3ccc(O)cc3)NC(=O)[C@@H]3CCCN3C(=O)CNC(=O)[C@H](Cc3c[nH]c4ccccc34)NC1=O)C(=O)N[C@@H](CC(C)C)C(=O)N[C@@H](CO)C(=O)N[C@@H](C)C(=O)N[C@H]1CSSC[C@H](NC(=O)[C@H](C(C)C)NC(=O)[C@@H]3CCCN3C(=O)CNC(=O)CNC(=O)CNC(=O)[C@H](C)NC(=O)[C@H](C)NC(=O)[C@H](CC(C)C)NC1=O)C(=O)N[C@@H](CC(C)C)C(=O)N[C@@H](C)C(=O)N[C@@H](C(C)C)C(=O)N2 | – | CMCC(B)28001 | – | MIC | > 128 µg/mL |
| Cc1ccc(-c2nc3ccc(C)cn3c2CC(=O)NCc2ccc(N(C)C)cc2)cc1 | microbial growth | ATCC10240 | 2 mM, 20 h | inhibition zone | 17 mm |
| CC[C@H](C)[C@H](NC(=O)[C@H](CCCNC(=N)N)NC(=O)[C@H](CC(=O)O)NC(=O)[C@H](CCCNC(=N)N)NC(=O)[C@H](CC(C)C)NC(=O)[C@H](CC(N)=O)NC(=O)[C@H](CCCNC(=N)N)NC(=O)[C@@H](N)Cc1ccccc1)C(=O)N[C@@H](CCCCN)C(=O)N[C@@H](CC(N)=O)C(=O)N[C@@H](CCCCN)C(=O)N[C@@H](Cc1ccccc1)C(=O)N[C@@H](CCC(=O)O)C(=O)N[C@@H](CC(N)=O)C(=O)N[C@@H](C)C(=O)N[C@@H](CC(C)C)C(=O)N[C@@H](CCCCN)C(=O)N[C@@H](CC(N)=O)C(=O)N[C@H](C(=O)N[C@H](C(=O)N[C@@H](CC(N)=O)C(=O)N[C@@H](CCCCN)C(=O)N[C@@H](CC(C)C)C(=O)N[C@@H](Cc1ccccc1)C(=O)N1CCC[C@H]1C(=O)O)[C@@H](C)CC)C(C)C | broth microdilution | ATCC 4698 | – | MIC | 2.59 µM |
| c1ccc(CCNC2CCCc3c2[nH]c2ccc(C4CCCCC4)cc32)cc1 (centres unmarked) | microbial growth, broth dilution | DSM1790 | – | MIC | 1 µg/mL |

Some of these lines once more:
| SMILES | assay | test system | setting | quantity | result |
| --- | --- | --- | --- | --- | --- |
| CC[C@H](C)[C@H](NC(=O)[C@H](CCCNC(=N)N)NC(=O)[C@H](CC(=O)O)NC(=O)[C@H](CCCNC(=N)N)NC(=O)[C@H](CC(C)C)NC(=O)[C@H](CC(N)=O)NC(=O)[C@H](CCCNC(=N)N)NC(=O)[C@@H](N)Cc1ccccc1)C(=O)N[C@@H](CCCCN)C(=O)N[C@@H](CC(N)=O)C(=O)N[C@@H](CCCCN)C(=O)N[C@@H](Cc1ccccc1)C(=O)N[C@@H](CCC(=O)O)C(=O)N[C@@H](CC(N)=O)C(=O)N[C@@H](C)C(=O)N[C@@H](CC(C)C)C(=O)N[C@@H](CCCCN)C(=O)N[C@@H](CC(N)=O)C(=O)N[C@H](C(=O)N[C@H](C(=O)N[C@@H](CC(N)=O)C(=O)N[C@@H](CCCCN)C(=O)N[C@@H](CC(C)C)C(=O)N[C@@H](Cc1ccccc1)C(=O)N1CCC[C@H]1C(=O)O)[C@@H](C)CC)C(C)C | broth microdilution | ATCC 4698 | – | MIC | 2.59 µM |
